# Measurements gathered from unrelated publications.
# Lines come from different studies, so protocols differ. ± gives the spread as reported.
SMILES,test,test system,setting,how to read,endpoint,result
C=C(c1ncc(C(=O)O)cn1)c1cc2c(cc1C)C(C)(C)CCC2(C)C,,"Sprague-Dawley rat, male","oral, 100 mg/kg, 12 h, sesame oil vehicle",,blood cholesterol,62 ± 4.7 mg/dL
NC(=O)[C@@H](CCCCNC(=O)CNC(=O)CCC(=O)NCCc1c[nH]cn1)NC(=O)[C@@H](CCC(=O)O)NC(=O)[C@@H](CCCCNC(=O)CNC(=O)CCC(=O)NCCc1c[nH]cn1)NC(=O)[C@@H](Cc1ccc(O)cc1)NC(=O)CN1CCN(CC(=O)O)CCN(CC(=O)O)CCN(CC(=O)O)CC1 [indium-111 labelled],SPECT,human CEACAM5 tumour patients,"dose not given, 24 h, 25 µg IMP288, with: TF2 75 mg, 1 day interval",,tumour activity concentration,9.4 %ID/kg
CCCCCCc1ccc(Oc2ccccc2C#N)c(O)c1,,"CD-1 mice, plasma","subcutaneous, 100 mg/kg",,absorption rate constant,1.7 ± 1 h⁻¹
CC(=O)N[C@H](CC(=O)O)C(=O)N[C@H](Cc1c[nH]c2ccccc12)C(=O)N[C@H](Cc1ccccc1)C(=O)N[C@H](CCCCN)C(=O)N[C@H](C)C(=O)N[C@H](Cc1ccccc1)C(=O)N[C@H](Cc1ccc(O)cc1)C(=O)N[C@H](CC(=O)O)C(=O)N[C@H](CCCCN)C(=O)N[C@@H](C(=O)N[C@H](C)C(=O)N[C@H](CCC(=O)O)C(=O)N[C@H](CCCCN)C(=O)N[C@H](Cc1ccccc1)C(=O)N[C@H](CCCCN)C(=O)N[C@H](CCC(=O)O)C(=O)N[C@H](C)C(=O)N[C@H](Cc1ccccc1)C(N)=O)C(C)C,,"statin-treated high-risk CHD men, plasma","oral, 300 mg daily, day 13, 0 to 8 h, mean, detected subjects only",,Cmax,6.05 ng/mL
CN(C)C(CNC(=O)Nc1cc(C(F)(F)F)ccc1N1CCOCC1)c1ccncc1 (centres unmarked),plasma protein binding,"human, plasma",time not given,,recovery,117%
CC(C)CCCC(C)CCCC(C)CCOC1OC[C@H](O)[C@H](O)[C@H]1O (some centres unmarked),drop shape analysis,water/n-octane,"solubility limit, 100 s, room temperature",,interfacial tension,21.9 mN/m
CCc1cc(Nc2nc(-c3ccc(-n4cnc(C)c4)c(F)c3)cs2)c(C)cc1C,,"human, both sexes, plasma","oral, 400 mg, day 1, multiple dose, geometric mean",,AUC(0-last),12000 ng·h/mL
COc1cc(N(C)CCN(C)C)c(NC(=O)CCSCC(NC(C)=O)C(=O)O)cc1Nc1nccc(-c2cn(C3CC3)c3ccccc23)n1 (centres unmarked),radio-HPLC,"human, feces","48 to 96 h, sample holds 20.06% dose",reference: dose,excreted amount,0.61%
O=C(O)C1OC(OC2C(COS(=O)(=O)O)OC(OC3C(C(=O)O)OC(OC4C(COS(=O)(=O)O)OC(OC5C(C(=O)O)OC(OC6C(COS(=O)(=O)O)OC(OC7C(C(=O)O)OC(OC8C(COS(=O)(=O)O)OC(OC9C(C(=O)O)OC(OC%10C(COS(=O)(=O)O)OC(OC%11C(C(=O)O)OC(Oc%12ccc([N+](=O)[O-])cc%12)C(O)C%11O)C(NS(=O)(=O)O)C%10O)C(OS(=O)(=O)O)C9O)C(NS(=O)(=O)O)C8O)C(OS(=O)(=O)O)C7O)C(NS(=O)(=O)O)C6O)C(OS(=O)(=O)O)C5O)C(NS(=O)(=O)O)C4O)C(OS(=O)(=O)O)C3O)C(NS(=O)(=O)O)C2OS(=O)(=O)O)C(O)C(O)C1OC1OC(COS(=O)(=O)O)C(O)C(O)C1NS(=O)(=O)O (centres unmarked),,"rats, serum","intravenous, 3600 µg/kg/day for 7 days, day 8",,total protein,6.28 ± 0.11 g/dL
CN(CCCN=Cc1ccccc1[O-])CCN(C)CCCN=Cc1ccccc1[O-].[67Ga+3],,rat,"intravenous, 2 h",reference: heart over lung,tissue uptake ratio,2.8 ± 0.4
C[Si](C)(C)C[C@H](CN)CC(=O)O,,"Sprague-Dawley rat, male, brain","oral, 30 mg/kg, estimated as Cmax x Kp",,brain Cmax,6.5 µM
COc1cc(NC(C)=O)c2c(c1O)-c1c(OC)c(OC)cc3c1C(C2)N(C)CC3 (centres unmarked),,rat heart homogenate,"5 µg/mL, 40 d, -20 °C, long-term storage",,remaining compound,99.4 ± 1.7%
NC[C@@H](C(=O)Nc1ccc(-c2cn[nH]c2)cc1)c1ccccc1,OECD 405 eye irritation,"New Zealand White rabbit, eye","topical, 0.1%, 25 h (day 2), scale 0 to 4",direction not given,chemosis score,0
CC(C)c1cnc(-c2cc(Cl)ccc2F)cc1Nc1ccncc1C(=O)NC(CO)CO,"monotherapy, item: headache",human patients,"oral, dose not given, grade 4, phase I A",,patients with treatment-related adverse event,0%
CC(C)(O)c1ncc([S@](N)(=O)=NC(=O)Nc2c3c(cc4c2CCC4)CCC3)s1,,"healthy human fasted, plasma","oral, 300 mg single dose, spray-dried dispersion",,AUC(0-last),327000 ng·h/mL
CCCC[C@H](NC(C)=O)C(=O)N[C@H]1CC(=O)NCCCC[C@@H](C(=O)N[C@@H](C(=O)N2CCC[C@@H]2C(N)=O)C(C)C)NC(=O)[C@H](Cc2c[nH]c3ccccc23)NC(=O)[C@H](CCCN=C(N)N)NC(=O)[C@@H](Cc2ccc3ccccc3c2)NC(=O)[C@@H]2CCCN2C1=O,,"Beagle dog, both sexes, plasma","subcutaneous, once daily, 2.25 mg/kg, day 5",,AUC,32300 ± 5200 ng·h/mL
O=C([O-])CN1CCN(CC(=O)[O-])CCN(CC(=O)NCC2CCC(C(=O)NC(Cc3ccc4ccccc4c3)C(=O)NCCCCC(NC(=O)NC(CCC(=O)O)C(=O)O)C(=O)O)CC2)CCN(CC(=O)[O-])CC1.[44Sc+3] (centres unmarked),transmetallation stability,,"1 h, 37 °C, with: Ca2+ 10 mM",,intact complex,98.3 ± 0.5%
CCc1cc2c(N3CCN([11C](=O)c4ccc(-c5ccccc5)cc4)CC3)nc(N3CCNC(=O)C3)nc2s1,PET,"Wistar rats, male, brain","intravenous, with: tariquidar 15 mg/kg iv, 30 min before",,SUVmax,0.25
C#CCN(CCCNC(=O)CCCCC[N+]1=C(/C=C/C2=C(Cl)C(=C/C=C3\N(CCCCCC(=O)[O-])c4ccccc4C3(C)C)/CCC2)C(C)(C)c2ccccc21)CCCOc1ccc(Cl)cc1Cl,,mouse plasma,"1 µg/mL nominal, 2 weeks, -80 °C",,concentration,1050 ± 60 ng/mL
NCC(=O)NCC(=O)NCC(=O)NCC(=O)NCC(=O)NCC(=O)NCCCC[C@H](NC(=O)[C@@H]1CCCN1C(=O)[C@@H]1CSSCCC(=O)N[C@@H](Cc2ccc(O)cc2)C(=O)N[C@@H](Cc2ccccc2)C(=O)N[C@@H](CCCC(N)=O)C(=O)N[C@@H](CC(N)=O)C(=O)N1)C(=O)NCC(N)=O,,male Sprague Dawley rats,"sc, single dose",,adverse effect level (ataxia),3.84 mg/kg
O=C([O-])CN1CCN(CC(=O)[O-])CCN(CC(=O)NCCc2ccc3c(c2)C2C=CCC2C(c2cc4c(cc2Br)OCO4)N3)CCN(CC(=O)[O-])CC1.[111In+3] (centres unmarked),,"mouse, Hec50 endometrial tumour xenograft, urine and hepatobiliary",4 h post-injection,,excreted dose,> 60 % injected dose
Cn1c(=O)oc2ccc(-c3ccc(CC(C#N)NC(=O)C4CNCCCO4)c(F)c3)cc21 (centres unmarked),item: anaemia,human,"40 mg single dose, fasted",,subjects with TEAE,8.3%
CC(C)C[C@@H](NC(=O)[C@H](NC(=O)[C@H]1CCCN1)[C@H](C)O)C(=O)N[C@H](Cc1c[nH]cn1)C(=O)N[C@@H](C(=O)N[C@H](Cc1c[nH]cn1)C(=O)N[C@H](CC(N)=O)C(=O)N[C@H](CCCNC(=N)N)C(=O)N[C@H](CCCNC(=N)N)C(=O)N[C@H](CCCNC(=N)N)C(=O)N[C@H](CCCNC(=N)N)C(=O)N[C@H](CCCNC(=N)N)C(N)=O)[C@H](C)O,,"Beagle dog, plasma","oral, 20 or 50 mg/kg, single dose",,"AUC fraction, half-life up to 3 h",> 75%
COC(=O)c1ccc(-c2cn(Cc3cc(Cl)ccc3O[11CH3])nn2)cc1,"PET, Logan plot, t*=40 min","rhesus monkey, brain WB",dose not given,,distribution volume,0.434 mL/cm³
CC(C)[C@H](NC(=O)CNC(=O)[C@H](CCC(N)=O)NC(=O)[C@H](C)N)C(=O)O,LC-MS/MS,"human, male, plasma","intravenous, 30 mg/kg three times daily, day 1, first dose, 10 min infusion, geometric mean",,clearance,767 mL/min/kg
CC(C)[C@H](NC(=O)[C@@H]1CCCN1C(=O)[C@H](CCCNC(=N)N)NC(=O)[C@H](CS)NC(=O)[C@H](Cc1c[nH]c2ccccc12)NC(=O)[C@H](CCCNC(=N)N)NC(=O)[C@@H](Cc1ccccc1)NC(=O)[C@H](Cc1c[nH]cn1)NC(=O)[C@H](CCC(=O)O)NC(=O)[C@H](CS)NC(=O)[C@H](CS)NC(=O)[C@@H]1CC(=O)N[C@@H](CCCNC(=N)N)C(=O)NCC(=O)N[C@@H](CC(=O)O)C(=O)N[C@H](Cc2ccc(O)cc2)C(=O)N1)C(N)=O [technetium-99m labelled],,"C57 mouse, female, B16/F1 melanoma, spleen","intravenous, 0.037 MBq, 24 h",,tissue uptake,0.57 ± 0.25 %ID/g
COc1cc(/C=C/C(=O)N2CCc3ccccc3C2)ccc1O[11CH3],PET-CT imaging,"C57BL/6 mouse, male, spleen","intravenous, 5 min",,uptake,11.4 ± 0.11 %ID/cc
CCc1c2c(nc3ccc(O)cc13)-c1cc3c(c(=O)n1C2)COC(=O)[C@]3(O)CC,,"human patients, plasma","intravenous, 3 mg/m^2 of parent drug",,AUC(0-inf),24 ng·h/mL
COCCOCCOCCOCCOCCOCCOCCOCCC(=O)NCCCc1cc2cc3nc(cc4[nH]c(cc5nc(c(OC)c1[nH]2)C(=O)C5(C)C)cc4CCc1ccc(C(=O)O)cc1)CC3(C)C,,DMF,room temperature,,kic^−1,10 ns

# Excerpt of the above:
SMILES,test,test system,setting,how to read,endpoint,result
NC(=O)[C@@H](CCCCNC(=O)CNC(=O)CCC(=O)NCCc1c[nH]cn1)NC(=O)[C@@H](CCC(=O)O)NC(=O)[C@@H](CCCCNC(=O)CNC(=O)CCC(=O)NCCc1c[nH]cn1)NC(=O)[C@@H](Cc1ccc(O)cc1)NC(=O)CN1CCN(CC(=O)O)CCN(CC(=O)O)CCN(CC(=O)O)CC1 [indium-111 labelled],SPECT,human CEACAM5 tumour patients,"dose not given, 24 h, 25 µg IMP288, with: TF2 75 mg, 1 day interval",,tumour activity concentration,9.4 %ID/kg
CN(CCCN=Cc1ccccc1[O-])CCN(C)CCCN=Cc1ccccc1[O-].[67Ga+3],,rat,"intravenous, 2 h",reference: heart over lung,tissue uptake ratio,2.8 ± 0.4
COc1cc(NC(C)=O)c2c(c1O)-c1c(OC)c(OC)cc3c1C(C2)N(C)CC3 (centres unmarked),,rat heart homogenate,"5 µg/mL, 40 d, -20 °C, long-term storage",,remaining compound,99.4 ± 1.7%
CC(C)CCCC(C)CCCC(C)CCOC1OC[C@H](O)[C@H](O)[C@H]1O (some centres unmarked),drop shape analysis,water/n-octane,"solubility limit, 100 s, room temperature",,interfacial tension,21.9 mN/m
